{"data": "Results gathered from unrelated publications", "note": "Every numbered part comes from another study and shows a few of its results, in no order."}
{"data": "Sample 1", "target": "RING finger protein unkempt homolog, zinc fingers 1-6, GST-SBP tag (UNK, Homo sapiens, UniProt Q9C0B0, residues 30-357)", "method": "RNA Bind-n-Seq", "molecule type": "RNA", "sample": "in vitro", "tested at": "not given", "setting": "RNA with constant flanks, human-mouse chimeric sites, ends assumed", "reference": "input RNA pool", "reading": "higher = stronger binding", "sequence of UniProt Q9C0B0 (30-357, looked up)": "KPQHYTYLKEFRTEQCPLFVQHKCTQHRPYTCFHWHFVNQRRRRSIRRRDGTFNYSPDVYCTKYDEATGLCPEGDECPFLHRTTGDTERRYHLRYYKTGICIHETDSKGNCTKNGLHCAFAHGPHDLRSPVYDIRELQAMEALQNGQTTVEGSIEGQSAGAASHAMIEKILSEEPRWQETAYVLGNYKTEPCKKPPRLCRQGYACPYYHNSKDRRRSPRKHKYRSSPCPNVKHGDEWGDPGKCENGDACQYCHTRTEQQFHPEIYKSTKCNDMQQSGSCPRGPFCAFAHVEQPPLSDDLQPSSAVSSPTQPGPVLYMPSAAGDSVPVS"}
{"Sequence": "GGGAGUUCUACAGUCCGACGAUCGAUAGGAAAAGCUUGUUGGAGACCCGCUUGCAUGUCACUGGUAGAGACCUGAGGUGUCAAAUAGCUGAAACCUUUGGAUUUCAAGAAAAUUACAUCAAGAUCGUAAUAAAUAAGAAACAGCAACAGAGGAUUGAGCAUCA", "bound/input enrichment [ratio]": 0.388}
{"Sequence": "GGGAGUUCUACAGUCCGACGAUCAAAAUAGACUAUGGCGAGUACAUGGAUAAAAACAAUGUGAGGCGACAAGCAACAACAAUCAUAGCUGAUAACAUUAUAUUUCUGAGUGACCAGACAAAAGAAAAGGCAUAGAACGGAUGACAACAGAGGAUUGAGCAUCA", "bound/input enrichment [ratio]": 2.61}
{"Sequence": "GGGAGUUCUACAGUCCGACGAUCGAUAAGAAAAGCUUGUUGGAGACCCGCUUGCAUGUCACUGGUAGAGACCUGAGGUGUCAAAUAGCUGAAACCUUUGGAUUUCAAGAAAAUUACAUCAAAAUUGUCAUAAAUAAGAAACAGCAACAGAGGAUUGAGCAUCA", "bound/input enrichment [ratio]": 0.266}
{"Sequence": "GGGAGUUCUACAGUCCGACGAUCCUGUGACCACAAGAUCCUACCUGAGUGGCAGCUGAAGCACUUUUCUUCUCCUUGCCUGCCUAGUUUCCCACUGCCCCCCCAUCCCCCAGUGUCGGCUGAGAUGUUGCCUCUGCACGGUUCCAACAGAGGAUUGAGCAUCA", "bound/input enrichment [ratio]": 1.24}
{"Sequence": "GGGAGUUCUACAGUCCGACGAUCAAAGAGAAACUAAAGCAACUAAUAGAGAAGAGGAUUGGCAAAGAGAAAUUUCAUAGAAAACUAGGAUUUAUUAGCAAACAUGAGUUAUAUUCCAGAGCGUCUCAGAAAACCCCAGCCAACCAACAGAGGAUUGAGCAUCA", "bound/input enrichment [ratio]": 14.8}
{"Sequence": "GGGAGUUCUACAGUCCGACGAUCCACAGAGCAGCACCUACCCCCUCCUCCUUUCCACACCUGCAAACCCUUUUACUUGGGCUGAAUAUUUAGUGUUAAUUCAUCUCAGCUUUGAGGGCUCCUGUGGCAAAUUCCCGGAUUAAACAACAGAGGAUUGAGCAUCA", "bound/input enrichment [ratio]": 0.669}
{"Sequence": "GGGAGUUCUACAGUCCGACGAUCGAGCCCAGCCGGCAGUUUGUAAAGGACUCCAUUCGGCUGGUUAAAAGAUGCACCAAACCCGACAGAAAAGAAUUCCAGAAGAUUGCCAUGGCUACAGCUAUAGGAUUUGCUAUAAUGGGACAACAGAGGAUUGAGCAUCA", "bound/input enrichment [ratio]": 0.349}
{"Sequence": "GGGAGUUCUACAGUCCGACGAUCCUCAUGGCUGCAGAAACAGGAAGUGGAAAAACUGGUGCAUUUAGUAUUCCCGUUAUCCAGAUAGUGUAUGAAACUCUGAAAGACCAACAGGAAGGAAAAAAAGGAAAAACAACUAUUAAACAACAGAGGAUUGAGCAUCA", "bound/input enrichment [ratio]": 1.23}
{"data": "Sample 2", "target": "Sal-like protein 4, full length isoform B (SALL4, Homo sapiens, UniProt Q9UJQ4-2, residues 1-616)", "method": "universal PBM", "molecule type": "double-stranded DNA, one strand shown", "sample": "in vitro", "tested at": "not given", "setting": "8-mer, flanks averaged, mean of replicates", "reading": "higher = stronger binding"}
{"Sequence": "AGCTAGCC", "E-score": -0.164}
{"Sequence": "CCTAAATC", "E-score": -0.0508}
{"Sequence": "ATAGTACG", "E-score": 0.154}
{"Sequence": "ATGATACC", "E-score": 0.192}
{"Sequence": "AATCTTCA", "E-score": 0.219}
{"Sequence": "AGTAGGGC", "E-score": -0.0508}
{"Sequence": "AATCACAC", "E-score": 0.183}
{"data": "Sample 3", "target": "RNA binding protein fox-1 homolog 2, RRM domain, GST-SBP tag (RBFOX2, Homo sapiens, UniProt O43251-10, residues 100-194)", "method": "RNA Bind-n-Seq", "molecule type": "RNA", "sample": "in vitro", "tested at": "365 nM", "setting": "natural RNA segment, single round, ends assumed", "reference": "no-protein control", "reading": "higher = stronger binding", "Construct (chain)": "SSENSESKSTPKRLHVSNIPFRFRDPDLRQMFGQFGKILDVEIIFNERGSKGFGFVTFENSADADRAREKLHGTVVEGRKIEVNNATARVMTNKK"}
{"Sequence": "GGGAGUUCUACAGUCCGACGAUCGCAAAUAUGGCCCUAGAAACAAGUGAUAUGGAAUUUACUUGGUGAAUAAGUUAUAAAUUCCCACAGAAGAAAAAUGUGAAAGACUGGGUGCUAGACAAGAAGGAAGCAGGUGGAAUUCUCGGGUGCCAA", "RBNS enrichment (R)": 1.14}
{"Sequence": "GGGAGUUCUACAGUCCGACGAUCAUAGUUCUGAGUUCUGUCAAAUGCCGUGAAAGUAUUUGCUAUAAUAAAGAAAAUUCUUGUGACUUUACUACCAGGACUUUUCUCUUCCCCAUGUCAAAAUACAAUCAAUAUGGAAUUCUCGGGUGCCAA", "RBNS enrichment (R)": 0.413}
{"Sequence": "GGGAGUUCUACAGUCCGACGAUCUAUAAAUGGUGACGAAAUGACAUCCUAAACAGAGUCUUUCUCCUGUAAUUUAGCUGAGAGAAUUCUUUUUCCCAACAGUGAAACAAGUGGGCCUCCUAGAAACUUUAUUGUGGAAUUCUCGGGUGCCAA", "RBNS enrichment (R)": 0.336}
{"Sequence": "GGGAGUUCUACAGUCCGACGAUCAUUUGAAGGCCAAGAGACCUUUGCUCUGCUGUGUGAGUCAGCCAGUCAAAAGCCCAGAAAGGCAAAAACCCAGCUUUCUUGUUUGGAGAGACAUGGGGCAUGUGUCUGCCUGGAAUUCUCGGGUGCCAA", "RBNS enrichment (R)": 0.842}
{"Sequence": "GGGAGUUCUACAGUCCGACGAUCCUCCUUGGCCAUUCAUUUUCCUCCAGCCCAUAGCUCUGCCCACUCCAGUGUCAAACACCGCCCAGGCUUUCCAGCUGACCUCUGUUAUCUUGAGAGCUGAGGCUAGGUCCUGGAAUUCUCGGGUGCCAA", "RBNS enrichment (R)": 0.514}
{"Sequence": "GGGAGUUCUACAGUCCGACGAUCCCCUAGCCACGUCCCCAGGUACUACAGUCCACUGCAAGCCUGCUCACCUCUGCCUGGAAGAGCUUGGACCAGAAACGACCUCCUCCUCUCUGUGUGUUGGAGGGAGAGGAUGGAAUUCUCGGGUGCCAA", "RBNS enrichment (R)": 0.874}
{"Sequence": "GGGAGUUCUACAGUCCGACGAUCCUAGCCAGGCAUGAUUGCAAUGUCUACAGGCCCAGUUCAUGAGAGGCAGAGACAGGAAGACCGCCGAAAGGUCAAGGAUAGCAUGGUCUACGUAUCGAGACUCCAGCCAGUGGAAUUCUCGGGUGCCAA", "RBNS enrichment (R)": 5.99}
{"Sequence": "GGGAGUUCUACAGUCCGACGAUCGACCACUUCUGUGUAAGUUUCACCUCCAAGUUUUACCUCCUGUGUCUUCCUCUGCUGUCGAGACGUUCCUGUCUGCUUCCCGGGAGCCUCACGUGCUCCUUGUCCUAACCUGGAAUUCUCGGGUGCCAA", "RBNS enrichment (R)": 0.298}
{"Sequence": "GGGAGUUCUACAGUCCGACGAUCCAGUCCUCUGGGGUCAGUGUCUCGGGCAGUGGGAUGGAACUGUGUGAUUGCUCUUAGGUGAGUUCCGAGUCUUAAUCUAUGCAUUCAGAGAAAUAUUUUUAUAUGCGUUGUGGAAUUCUCGGGUGCCAA", "RBNS enrichment (R)": 1.54}
{"Sequence": "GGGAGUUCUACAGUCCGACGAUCCCAAACUGCCCCCUAUAUGUAAAGUUCAGUUUAACCACUGAUUGCCUUGUUAUUACUAGGUUUUUUGAGAUUAAAAAAAAAAAAUCCCUGGUUUAAAACCAACAAUGAUGUGGAAUUCUCGGGUGCCAA", "RBNS enrichment (R)": 0.719}
{"data": "Further values, each from its own experiment"}
{"Molecule": "PhoQ, residues 284 288 289 292 302 303 AGGCYF", "target": "PhoP, residues 12 14 15 18 19 LHHVQ (Escherichia coli, UniProt P23836)", "test": "Sort-seq, item: YFP reporter", "system": "E. coli", "setting": "PhoQ-PhoP variant library, added: 10 µM Mg2+", "how to read": "reference: high Mg2+ state, higher = stronger signaling", "measurement": "fold induction", "result": 31.6}
{"note": "Repeated from above (sample 1):"}
{"Sequence": "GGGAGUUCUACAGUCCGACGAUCGAUAAGAAAAGCUUGUUGGAGACCCGCUUGCAUGUCACUGGUAGAGACCUGAGGUGUCAAAUAGCUGAAACCUUUGGAUUUCAAGAAAAUUACAUCAAAAUUGUCAUAAAUAAGAAACAGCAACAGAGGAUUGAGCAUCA", "bound/input enrichment [ratio]": 0.266}
{"Sequence": "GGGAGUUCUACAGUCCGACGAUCCUGUGACCACAAGAUCCUACCUGAGUGGCAGCUGAAGCACUUUUCUUCUCCUUGCCUGCCUAGUUUCCCACUGCCCCCCCAUCCCCCAGUGUCGGCUGAGAUGUUGCCUCUGCACGGUUCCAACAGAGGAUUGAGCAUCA", "bound/input enrichment [ratio]": 1.24}
